Experimental data collected from several papers.
Parts stem from different laboratories: compare values within a part only.

Sample 1
Target: RNA binding protein fox-1 homolog 2, RRM domain, GST-SBP tag (RBFOX2, Homo sapiens, UniProt O43251-10, residues 100-194)
Method: RNA Bind-n-Seq
Molecule type: RNA
Medium: in vitro
Tested at: 365 nM
Setting: natural RNA segment, single round, ends assumed
Reference: no-protein control
Direction: higher = stronger binding
Quantity: RBNS enrichment (R)
Construct (chain): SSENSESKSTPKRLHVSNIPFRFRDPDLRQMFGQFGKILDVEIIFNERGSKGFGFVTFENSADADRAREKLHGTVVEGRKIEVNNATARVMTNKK
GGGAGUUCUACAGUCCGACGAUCUAUAACAGAACCUUCUGUAUAGGUUCUGGCAAUCAAGAGAUGUAUAAUAAAACAUAGCUUACGUGAACUCGGUGUCCUCCAUCCUUCAGGGAGCCAGGGGGCUGUGGGACUGGAAUUCUCGGGUGCCAA: 0.236
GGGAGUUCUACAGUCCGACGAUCCCACGUCUCUGCCUCCUAAAUUCCUGUAUGGACUUGAGAUGGCUUCAUUGAAAAACCACACGGCAGAUGAACAACCUAUGGCCAAAACGUCCAAUAAAUGUCUCUACCGCUGGAAUUCUCGGGUGCCAA: 0.304
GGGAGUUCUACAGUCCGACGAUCAGUCACACAACCAAAGGUAGACUCAGACCAGUUCAGUGCUCCUGGUGGCCAUAGGGACCAGAAAGCAGCUUAGGAAAUCUAUCCAUUGGCCCUUUUAGAGUCUCUGUGUGUGGAAUUCUCGGGUGCCAA: 0.386
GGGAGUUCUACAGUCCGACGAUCUAGCCCAAAGGGCUGAGCCUCCUGGCCUGCCUGCCCGCCCACCCUGGGAGUCCCAGUGGUGAGGCUCAGAGAACUGCUAAGGGGAAAGAACAGCUGGAGUUUCUGUUGAUUGGAAUUCUCGGGUGCCAA: 0.436
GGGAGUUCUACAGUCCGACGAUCUGCCAAAACCAGCAAGUACACCGAAUCCUGAGACAAGGCAGUUCUUGUGACAGUGCCUUGGCCUCCUGGAAGCAGUCUGAGCCCUCCUGUUCCCAGGAUCACGAGAAACAUGGAAUUCUCGGGUGCCAA: 0.332
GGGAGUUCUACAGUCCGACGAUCUCAAGAGAAUCUCUGCUGGCUACCCCAGGACUUCUCAUUAUAGAUUUCCUGGAGCACGCAGCAGAAACUUUGCCUAGCCCAGUGGUUGUUUCCAUUAUCUGCUGCCAAAGUGGAAUUCUCGGGUGCCAA: 0.228
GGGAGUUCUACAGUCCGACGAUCUGGAAGGUUGACCUACUUGGAUCUUGGCAUGCACCCACCUAACCCACUUUCUCAAGAACAAGAACCUAGAAUGAAUAUCCAAGCACCUCGAGCUAUGCAACCUCUGUUCUUGGAAUUCUCGGGUGCCAA: 1.22
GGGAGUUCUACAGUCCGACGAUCAAACAAAAAAGGGACUUAUUUUGCAUUCUCAAUGGUGUUUUUAAGGGAAUUAGGCAGAACAGAUUUCUAGGUUGGGUAGGCCACUGCAUUCUCUUUUGUUUGCAAAUUGGUGGAAUUCUCGGGUGCCAA: 1.35

Sample 2
Target: RING finger protein unkempt homolog, zinc fingers 1-6, GST-SBP tag (UNK, Homo sapiens, UniProt Q9C0B0, residues 30-357)
Sequence of UniProt Q9C0B0 (30-357, looked up): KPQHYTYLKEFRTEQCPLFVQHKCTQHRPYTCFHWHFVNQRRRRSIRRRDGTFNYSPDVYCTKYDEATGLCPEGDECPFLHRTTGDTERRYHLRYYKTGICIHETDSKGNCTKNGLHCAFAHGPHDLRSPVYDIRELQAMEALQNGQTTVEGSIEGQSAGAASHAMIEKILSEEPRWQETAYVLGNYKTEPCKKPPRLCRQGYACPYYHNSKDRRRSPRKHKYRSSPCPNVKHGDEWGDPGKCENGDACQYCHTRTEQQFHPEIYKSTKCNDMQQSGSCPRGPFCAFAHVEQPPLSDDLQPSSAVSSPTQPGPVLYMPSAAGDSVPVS
Method: RNA Bind-n-Seq
Molecule type: RNA
Medium: in vitro
Tested at: not given
Setting: RNA with constant flanks, human and mouse sites, ends assumed
Reference: input RNA pool
Direction: higher = stronger binding
Quantity: bound/input enrichment
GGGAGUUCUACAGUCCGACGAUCCAGCUCACAACUUCCAUAGGAUCCAGUGACAUGCAUGUAACACCCCACCCCCAACACACACACACACAUAACUAUAAAUGACAGAGGAGAUCUUAAAGUACUAGUUAUAUACCAGAGCUCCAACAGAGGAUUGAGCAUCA: 1.06 ratio
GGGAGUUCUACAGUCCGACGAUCCAGAACCUAAACUUAUAGCAAAAGAGCCAAGCAGUAGCAGUUUUUGUAAAUGUAAAAAUAAUUAGAUCCAGACUUUGUUUCCUUCAAUUUUAAAAAUAAAAAAUACCUCAGUGCUAUGUUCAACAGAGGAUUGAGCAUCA: 7.49 ratio
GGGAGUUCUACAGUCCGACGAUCUCAGAAGAAGAAUGUACUACUAGUUAUUUAACAUUAUGCAAUGAAUAUGGGCAAGAAAAGAUUGAACCAGGGUCUUUGAAUGAGGAGCCCUUCAUGAAGACUGAAGGGAAUGGUGUUGAUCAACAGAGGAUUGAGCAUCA: 6.13 ratio
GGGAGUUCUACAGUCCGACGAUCUUAUUUUUCCCCCCCUACAGUUUCCAUUUUUUUUUUAUACUUGCUUACUCCAGCCAUCUGCAGUACACCAGUUUCAGGUCUUUUGAGCUGUGUAGAGUUUCUGUGUGUACAGAUGUGUGCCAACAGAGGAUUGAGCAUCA: 8.28 ratio
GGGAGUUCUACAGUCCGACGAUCAUUAUUGCAUGCAUAGAAAGCCAUCAGUUCCAAGCAAAAAAUUUUUGCUGCUGUUUUUAUUUUUAAGGAAUGGUCGUUGGAGGUCAGAAUGGAAGUUUACAAUCACUCCUUCAACCACUCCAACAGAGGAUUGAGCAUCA: 0.342 ratio
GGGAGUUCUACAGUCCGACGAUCGUCGACGUGUGCAGAAGUCCUGGUAAUCUGGUCCUUGUUCCCGUCUGGAUACCAGCUUCCUUCAGCAGCGCAGGCGGUGGUCCCUGAGGCCCGUGGAAGGAGUCAAACUUGCGGGAAUUUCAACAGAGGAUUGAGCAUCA: 0.11 ratio
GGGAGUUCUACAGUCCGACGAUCUCAUUGUCUUUUUUUUCCUCUUUUCUCUGUAAUUUGUUACUAAACAAAUUCCAGAAUUUGUUUAGUAGCUGAGUGUUCCUGAGUUGCCUAGUAGCAAUAAAACAAGUGAAUAGGAAAAUACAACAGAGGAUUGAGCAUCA: 0.486 ratio
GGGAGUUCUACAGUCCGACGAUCCUGCCCUACGCGCUGCAUAAGUGGAGCUCCUUCUCCUCCACCUACCUUCCCGAGAACAUUUUAGUGGAUAAACCAAAUGAUCAGUCUUCCAGAUGGUCUUCAGAGAGCAACUAUCCUCCCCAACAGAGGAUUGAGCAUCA: 0.998 ratio

Sample 3
Target: Ras GTPase-activating protein-binding protein 1, RRM domain (G3BP1, Homo sapiens, UniProt Q13283)
Sequence of UniProt Q13283 (whole entry, looked up): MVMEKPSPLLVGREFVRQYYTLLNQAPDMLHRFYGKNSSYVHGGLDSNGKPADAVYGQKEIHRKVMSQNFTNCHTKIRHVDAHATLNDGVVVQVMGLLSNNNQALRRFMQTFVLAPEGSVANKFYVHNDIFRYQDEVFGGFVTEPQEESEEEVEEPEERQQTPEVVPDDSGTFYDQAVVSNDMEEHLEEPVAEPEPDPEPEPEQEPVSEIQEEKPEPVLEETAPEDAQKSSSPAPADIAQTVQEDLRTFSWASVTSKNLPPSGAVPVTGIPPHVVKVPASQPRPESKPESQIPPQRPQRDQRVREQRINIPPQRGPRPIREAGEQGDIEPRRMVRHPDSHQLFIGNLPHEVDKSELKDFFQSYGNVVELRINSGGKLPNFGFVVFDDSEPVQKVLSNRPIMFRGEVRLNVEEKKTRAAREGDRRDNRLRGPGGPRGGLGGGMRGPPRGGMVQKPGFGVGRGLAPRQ
Method: RNA Bind-n-Seq
Molecule type: RNA
Medium: in vitro
Tested at: 1 µM
Setting: whole 134-nt RNA, ends assumed
Added: 150 mM KCl
Reference: input library
Direction: higher = stronger binding
Quantity: log2 enrichment
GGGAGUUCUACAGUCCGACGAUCCACAGACAACACGCACCCACACAGACACAGAGGGAAGGGGUUGGGAUGGGGACAGGGUGCACAGCAGGGCGGGGUAGCACCCCAGCCCCUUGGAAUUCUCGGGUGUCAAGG: -0.31
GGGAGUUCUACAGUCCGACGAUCUUGUGAUUAAGAUUUGUUCUUUUUCUCCCCUCUCUAUAGGAAGAUGAUCCCUAUGAUCUUGAAGAUGUUUCUGCACAGAAAUGAGGGAAAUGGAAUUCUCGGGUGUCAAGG: -0.134
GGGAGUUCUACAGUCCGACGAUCUGGCCCUGGUGGCAUGCGGGGAGGAAGAGGUGGCCUCAUGGAUCGUGGUGGUCCCGGUGGAAUGUUCAGAGGUGGCCGUGGUGGUGACAGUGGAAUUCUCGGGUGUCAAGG: 1.7
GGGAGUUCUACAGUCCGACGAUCUAACUUUAGAGGAGGAUCUGAUGGAUAUGGCAAUGGACGUGGAUUUGGGGAUGGCUAUAAUGGGUAUGGAGGAGGACCUGGAGGUGGCAAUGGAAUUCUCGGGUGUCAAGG: -0.698
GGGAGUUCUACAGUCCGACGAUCAAGUCCUGUGCUACACAUCGUAUGUACCGAAUCAAAUUUUUAAAUUUAAACCCAAAAAAGUAUUAUGUUACGCCGUUCGGAUCUGCACUUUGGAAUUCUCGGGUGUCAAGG: -0.874
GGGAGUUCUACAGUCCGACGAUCCUUUGGUUGACAGGAAGUUCCUUUUCCAGGCAGGUCCCGUUGCCACCUCCUGCUCACUCAGUCCCGGGCUCUGCCGAGUGGUCCUGGGAAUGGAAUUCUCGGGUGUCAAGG: -0.103
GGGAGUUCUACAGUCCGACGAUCCUCAAGUCCUGUGCUACACAUCGUAUGUACCGAAUCGGGUUGGUUGGGUUGGGGAAAGUAUUAUGUUACGCCGUUCGGAUCUGCACUUCCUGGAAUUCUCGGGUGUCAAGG: 0.0498
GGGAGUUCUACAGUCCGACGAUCACCAUGCAGGUGGGCAUCUUUGGGAAGUGGGGCAAGGGGGGGAUAGGGAGGGGGGUAACACUUUGGGAACAGGUGGUCCGAGGUCGUUUCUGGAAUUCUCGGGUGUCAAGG: 0.696
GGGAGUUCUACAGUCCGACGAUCCUCAAGUCCUGUGCUACACAUCGUAUGUACCGAAUCGGAGGAAAGGAAAAAGGAAAGUAUUAUGUUACGCCGUUCGGAUCUGCACUUCCAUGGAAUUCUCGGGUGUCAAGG: -0.264

Sample 4
Target: Sal-like protein 4, full length isoform A (SALL4, Homo sapiens, UniProt Q9UJQ4, residues 1-1053)
Sequence of UniProt Q9UJQ4 (whole entry, looked up): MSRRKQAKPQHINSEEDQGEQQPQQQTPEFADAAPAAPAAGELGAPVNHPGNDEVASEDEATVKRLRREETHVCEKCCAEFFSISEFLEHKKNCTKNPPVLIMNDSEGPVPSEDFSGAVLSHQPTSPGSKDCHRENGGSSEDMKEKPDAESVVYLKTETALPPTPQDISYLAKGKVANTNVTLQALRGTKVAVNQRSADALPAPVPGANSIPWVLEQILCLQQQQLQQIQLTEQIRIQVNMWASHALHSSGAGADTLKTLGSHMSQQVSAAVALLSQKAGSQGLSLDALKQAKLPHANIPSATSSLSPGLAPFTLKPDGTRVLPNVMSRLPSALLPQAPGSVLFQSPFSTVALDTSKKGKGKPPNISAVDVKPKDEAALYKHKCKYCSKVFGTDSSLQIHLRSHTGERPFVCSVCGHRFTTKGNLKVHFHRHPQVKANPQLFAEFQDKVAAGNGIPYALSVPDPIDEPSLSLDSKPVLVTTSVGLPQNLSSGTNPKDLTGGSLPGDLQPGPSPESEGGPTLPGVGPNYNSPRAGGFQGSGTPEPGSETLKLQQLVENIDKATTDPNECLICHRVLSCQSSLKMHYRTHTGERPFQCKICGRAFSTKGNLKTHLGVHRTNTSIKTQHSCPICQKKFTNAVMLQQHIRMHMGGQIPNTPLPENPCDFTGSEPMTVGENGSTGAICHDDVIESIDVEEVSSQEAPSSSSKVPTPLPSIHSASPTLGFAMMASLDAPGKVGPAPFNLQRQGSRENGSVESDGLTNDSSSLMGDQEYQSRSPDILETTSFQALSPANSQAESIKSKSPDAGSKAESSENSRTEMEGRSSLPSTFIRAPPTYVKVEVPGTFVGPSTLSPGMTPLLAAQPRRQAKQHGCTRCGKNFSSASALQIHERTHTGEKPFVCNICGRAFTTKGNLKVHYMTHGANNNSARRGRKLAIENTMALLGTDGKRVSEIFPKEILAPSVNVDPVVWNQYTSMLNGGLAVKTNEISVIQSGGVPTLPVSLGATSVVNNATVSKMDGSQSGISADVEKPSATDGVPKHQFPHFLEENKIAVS
Method: universal PBM
Molecule type: double-stranded DNA, one strand shown
Medium: in vitro
Tested at: 600 nM
Setting: 8-mer, flanks averaged, mean of replicates
Direction: higher = stronger binding
Quantity: E-score
TTGAACAA: 0.139
CGGACCTA: -0.131
CATTAAGG: 0.133
CGGTTGGC: -0.281
CCTTACTA: 0.129
GATTGAAA: 0.217
ACTACGTG: -0.218
TCTCAAGA: 0.041
GACAGGCA: -0.145
CGAGCGGC: -0.36
ACTCAGTC: -0.0968
AGGACAAG: -0.0232
GTACACTA: 0.0777
CTGATTAC: 0.12
ATCGTCTC: 0.0273
CCCACCTA: -0.0501
GACAGTAA: 0.0933
GCCCGGTA: -0.315
CGTAAAAG: 0.155
CTAGCTGC: -0.337
AATAATGG: 0.247
AAAAAAAT: 0.377
